Experimental data pooled from the literature.
Protocols differ between the studies behind these lines. Values after ≈ are worked out from the molar mass of the structure shown.
Organism: Bacillus subtilis

Compound	test	test system	setting	MIC [µg/mL]
CC[C@H]1OC(=O)[C@H](C)[C@@H](OC(=O)Cc2ccc(OC)cc2)[C@H](C)[C@@H](O[C@@H]2O[C@H](C)C[C@H](N(C)C)[C@H]2O)[C@](C)(OC)C[C@@H](C)C(=O)[C@H](C)[C@@H](O)[C@]1(C)O	microbial growth	DSM402		4 (≈ 5.42 µM)
CN[C@H](CC(C)C)C(=O)N[C@H]1C(=O)N[C@@H](CC(N)=O)C(=O)N[C@H]2C(=O)N[C@H]3C(=O)N[C@H](C(=O)N[C@H](C(=O)NCc4cn(CC(=O)N[C@H](C(=O)N[C@@H](CCN)C(=O)N[C@H]5CCNC(=O)[C@H]([C@@H](C)O)NC(=O)[C@H](CCN)NC(=O)[C@H](CCN)NC(=O)[C@H](CC(C)C)NC(=O)[C@@H](CC(C)C)NC(=O)[C@H](CCN)NC5=O)[C@@H](C)O)nn4)c4cc(O)cc(O)c4-c4cc3ccc4O)[C@H](O)c3ccc(c(Cl)c3)Oc3cc2cc(c3O[C@@H]2O[C@H](CO)[C@@H](O)[C@H](O)[C@H]2O[C@H]2C[C@](C)(N)[C@H](O)[C@H](C)O2)Oc2ccc(cc2Cl)[C@H]1O	broth microdilution	168, cation-adjusted Mueller-Hinton broth	20 to 24 h, 37 °C, 0.002% polysorbate 80	0.5 (≈ 0.2 µM)
COc1cc(C(=O)Nc2ccc(C(=O)O)c(O)c2)ccc1NC(=O)c1ccc(NC(=O)[C@H](Cc2c[nH]nn2)NC(=O)c2ccc(NC(=O)/C(C)=C/c3ccc(O)cc3)cc2)cc1	broth microdilution	DSM 10		2 (≈ 2.38 µM)
CC(C)C[C@@H]1NC(=O)[C@@H](CC(C)C)NC(=O)[C@H](CCN)NC(=O)[C@@H](NC(=O)[C@H](CCN)NC(=O)[C@@H](N)[C@@H](C)O)CCNC(=O)[C@H]([C@@H](C)O)NC(=O)[C@H](CCN)NC(=O)[C@H](CCN)NC1=O	broth microdilution	168, cation-adjusted Mueller-Hinton broth	20 to 24 h, 37 °C, 0.002% polysorbate 80	> 128
COc1c(NC(=O)c2ccc(NC(=O)c3ccc(NC(=O)[C@H](Cc4c[nH]nn4)NC(=O)c4ccc(NC(=O)/C(C)=C/c5ccc(O)cc5)cc4)cc3)cc2O)ccc(C(=O)O)c1O	broth microdilution	DSM 10		4 (≈ 4.68 µM)
CC[C@H]1OC(=O)[C@H](C)[C@@H](OC(=O)CC2CCCCC2)[C@H](C)[C@@H](O[C@@H]2O[C@H](C)C[C@H](N(C)C)[C@H]2O)[C@](C)(OC)C[C@@H](C)C(=O)[C@H](C)[C@@H](O)[C@]1(C)O	microbial growth	DSM402		1 (≈ 1.4 µM)
COc1cc(C(=O)O)ccc1NC(=O)c1ccc(NC(=O)c2ccc(NC(=O)[C@H](Cc3c[nH]nn3)NC(=O)c3ccc(NC(=O)/C(C)=C/c4ccc(O)cc4)cc3)cc2)c(OC)c1	broth microdilution	DSM 10		1 (≈ 1.17 µM)
CC[C@H]1OC(=O)[C@H](C)[C@@H](OC(=O)Cc2ccc(N(C)C)cc2)[C@H](C)[C@@H](O[C@@H]2O[C@H](C)C[C@H](N(C)C)[C@H]2O)[C@](C)(OC)C[C@@H](C)C(=O)[C@H](C)[C@@H](O)[C@]1(C)O	microbial growth	DSM402		8 (≈ 10.7 µM)
C#CCOc1ccc(CN[C@@]2(C)C[C@H](O[C@H]3[C@H](Oc4c5cc6cc4Oc4ccc(cc4Cl)[C@@H](O)[C@@H](NC(=O)[C@@H](CC(C)C)NC)C(=O)N[C@@H](CC(N)=O)C(=O)N[C@H]6C(=O)N[C@H]4C(=O)N[C@H](C(=O)N[C@H](C(=O)NCC(N)=O)c6cc(O)cc(O)c6-c6cc4ccc6O)[C@H](O)c4ccc(c(Cl)c4)O5)O[C@H](CO)[C@@H](O)[C@@H]3O)O[C@@H](C)[C@H]2O)cc1OC	broth microdilution	168, cation-adjusted Mueller-Hinton broth	20 to 24 h, 37 °C, 0.002% polysorbate 80	0.125 (≈ 0.0744 µM)
CO[C@H]1O[C@H](COC(c2ccccc2)(c2ccccc2)c2ccccc2)[C@@H](OS(=O)(=O)c2ccccc2)[C@H](OS(=O)(=O)c2ccccc2)[C@H]1OS(=O)(=O)c1ccccc1	microbial growth, broth dilution			1.5 (≈ 1.75 µM)

Some of these lines once more:
Compound	test	test system	setting	MIC [µg/mL]
COc1cc(C(=O)Nc2ccc(C(=O)O)c(O)c2)ccc1NC(=O)c1ccc(NC(=O)[C@H](Cc2c[nH]nn2)NC(=O)c2ccc(NC(=O)/C(C)=C/c3ccc(O)cc3)cc2)cc1	broth microdilution	DSM 10		2 (≈ 2.38 µM)
